Experimental data collected from several papers.
Each line is one published result; not all experiments were run side by side. “And” joins repeats or separate records; there may be more than shown. ± gives the spread as reported.
Uncharacterized hydrolase SAUSA300_2518: Uncharacterized hydrolase SAUSA300_2518 (Staphylococcus aureus, UniProt Q2FDS6)
UniProt Q2FDS6, sequence (whole entry, looked up): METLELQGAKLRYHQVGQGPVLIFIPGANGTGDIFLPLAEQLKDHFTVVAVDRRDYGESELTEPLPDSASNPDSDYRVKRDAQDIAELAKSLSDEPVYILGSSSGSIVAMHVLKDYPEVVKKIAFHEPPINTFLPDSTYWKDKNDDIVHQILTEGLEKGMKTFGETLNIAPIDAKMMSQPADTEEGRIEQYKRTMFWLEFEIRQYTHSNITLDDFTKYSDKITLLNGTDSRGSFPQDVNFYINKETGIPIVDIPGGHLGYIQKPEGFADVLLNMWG
UniProt P23443, sequence (whole entry, looked up): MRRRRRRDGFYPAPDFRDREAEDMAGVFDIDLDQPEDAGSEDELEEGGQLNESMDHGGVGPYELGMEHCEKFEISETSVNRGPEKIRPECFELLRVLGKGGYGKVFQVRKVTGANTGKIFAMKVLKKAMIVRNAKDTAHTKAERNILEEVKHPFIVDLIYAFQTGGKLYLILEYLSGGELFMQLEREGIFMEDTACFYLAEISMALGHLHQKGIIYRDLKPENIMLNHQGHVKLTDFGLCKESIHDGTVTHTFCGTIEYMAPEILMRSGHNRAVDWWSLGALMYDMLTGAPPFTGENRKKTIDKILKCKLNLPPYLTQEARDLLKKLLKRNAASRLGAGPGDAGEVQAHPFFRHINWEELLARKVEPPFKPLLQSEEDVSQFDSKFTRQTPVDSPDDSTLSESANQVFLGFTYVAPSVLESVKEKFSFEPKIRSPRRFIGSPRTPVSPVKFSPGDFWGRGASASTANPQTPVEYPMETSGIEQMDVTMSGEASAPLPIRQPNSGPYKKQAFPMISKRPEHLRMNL
UniProt P03114, sequence (whole entry, looked up): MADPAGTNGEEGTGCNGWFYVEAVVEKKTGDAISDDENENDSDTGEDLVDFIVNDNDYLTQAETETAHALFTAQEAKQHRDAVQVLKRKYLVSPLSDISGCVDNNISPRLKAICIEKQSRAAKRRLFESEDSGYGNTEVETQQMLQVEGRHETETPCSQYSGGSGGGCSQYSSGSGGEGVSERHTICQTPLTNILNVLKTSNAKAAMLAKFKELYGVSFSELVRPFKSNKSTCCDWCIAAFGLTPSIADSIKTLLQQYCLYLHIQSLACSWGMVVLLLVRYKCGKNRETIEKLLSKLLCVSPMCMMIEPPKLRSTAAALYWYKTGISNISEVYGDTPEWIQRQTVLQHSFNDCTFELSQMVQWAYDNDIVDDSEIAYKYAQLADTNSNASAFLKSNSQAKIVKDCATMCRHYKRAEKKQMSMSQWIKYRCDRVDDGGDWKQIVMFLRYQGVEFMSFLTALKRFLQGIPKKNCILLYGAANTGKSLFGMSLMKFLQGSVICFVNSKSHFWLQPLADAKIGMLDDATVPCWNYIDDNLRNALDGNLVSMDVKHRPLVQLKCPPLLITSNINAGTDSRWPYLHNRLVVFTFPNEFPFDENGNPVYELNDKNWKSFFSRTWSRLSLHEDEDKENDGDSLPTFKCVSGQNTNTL
UniProt P16277, sequence (whole entry, looked up): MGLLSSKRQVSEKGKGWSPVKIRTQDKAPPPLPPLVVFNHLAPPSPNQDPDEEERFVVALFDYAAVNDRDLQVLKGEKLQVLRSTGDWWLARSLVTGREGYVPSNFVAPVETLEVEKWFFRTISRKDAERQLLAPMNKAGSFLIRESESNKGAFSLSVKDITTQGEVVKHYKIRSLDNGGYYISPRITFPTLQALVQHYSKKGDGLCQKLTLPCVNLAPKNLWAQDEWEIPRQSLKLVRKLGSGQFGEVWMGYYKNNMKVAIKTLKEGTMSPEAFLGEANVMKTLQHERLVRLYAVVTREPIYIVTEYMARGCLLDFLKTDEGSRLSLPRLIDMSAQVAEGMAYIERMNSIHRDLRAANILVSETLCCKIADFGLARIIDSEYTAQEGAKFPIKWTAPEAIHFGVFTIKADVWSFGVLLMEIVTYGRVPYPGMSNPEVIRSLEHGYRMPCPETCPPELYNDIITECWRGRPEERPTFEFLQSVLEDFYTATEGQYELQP
UniProt P54578, sequence (whole entry, looked up): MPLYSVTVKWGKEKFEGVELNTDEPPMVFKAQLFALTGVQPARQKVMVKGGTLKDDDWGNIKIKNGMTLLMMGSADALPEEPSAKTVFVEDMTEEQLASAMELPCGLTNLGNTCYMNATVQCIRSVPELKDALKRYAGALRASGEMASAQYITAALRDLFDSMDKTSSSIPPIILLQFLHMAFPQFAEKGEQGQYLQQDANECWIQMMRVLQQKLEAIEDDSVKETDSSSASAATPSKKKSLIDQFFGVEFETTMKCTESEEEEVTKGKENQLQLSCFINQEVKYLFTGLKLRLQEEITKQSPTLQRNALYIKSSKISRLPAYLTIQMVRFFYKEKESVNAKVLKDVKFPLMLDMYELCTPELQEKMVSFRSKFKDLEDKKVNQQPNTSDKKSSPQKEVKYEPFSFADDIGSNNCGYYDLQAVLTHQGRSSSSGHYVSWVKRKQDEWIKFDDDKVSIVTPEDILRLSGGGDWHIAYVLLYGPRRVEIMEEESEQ
UniProt P30043, sequence (whole entry, looked up): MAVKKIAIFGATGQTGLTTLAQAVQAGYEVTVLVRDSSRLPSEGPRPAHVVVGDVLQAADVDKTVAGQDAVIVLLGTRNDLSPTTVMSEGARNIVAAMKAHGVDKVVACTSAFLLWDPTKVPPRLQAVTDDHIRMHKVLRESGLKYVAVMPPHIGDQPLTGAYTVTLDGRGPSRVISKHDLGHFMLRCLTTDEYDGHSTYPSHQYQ
UniProt O95835, sequence (whole entry, looked up): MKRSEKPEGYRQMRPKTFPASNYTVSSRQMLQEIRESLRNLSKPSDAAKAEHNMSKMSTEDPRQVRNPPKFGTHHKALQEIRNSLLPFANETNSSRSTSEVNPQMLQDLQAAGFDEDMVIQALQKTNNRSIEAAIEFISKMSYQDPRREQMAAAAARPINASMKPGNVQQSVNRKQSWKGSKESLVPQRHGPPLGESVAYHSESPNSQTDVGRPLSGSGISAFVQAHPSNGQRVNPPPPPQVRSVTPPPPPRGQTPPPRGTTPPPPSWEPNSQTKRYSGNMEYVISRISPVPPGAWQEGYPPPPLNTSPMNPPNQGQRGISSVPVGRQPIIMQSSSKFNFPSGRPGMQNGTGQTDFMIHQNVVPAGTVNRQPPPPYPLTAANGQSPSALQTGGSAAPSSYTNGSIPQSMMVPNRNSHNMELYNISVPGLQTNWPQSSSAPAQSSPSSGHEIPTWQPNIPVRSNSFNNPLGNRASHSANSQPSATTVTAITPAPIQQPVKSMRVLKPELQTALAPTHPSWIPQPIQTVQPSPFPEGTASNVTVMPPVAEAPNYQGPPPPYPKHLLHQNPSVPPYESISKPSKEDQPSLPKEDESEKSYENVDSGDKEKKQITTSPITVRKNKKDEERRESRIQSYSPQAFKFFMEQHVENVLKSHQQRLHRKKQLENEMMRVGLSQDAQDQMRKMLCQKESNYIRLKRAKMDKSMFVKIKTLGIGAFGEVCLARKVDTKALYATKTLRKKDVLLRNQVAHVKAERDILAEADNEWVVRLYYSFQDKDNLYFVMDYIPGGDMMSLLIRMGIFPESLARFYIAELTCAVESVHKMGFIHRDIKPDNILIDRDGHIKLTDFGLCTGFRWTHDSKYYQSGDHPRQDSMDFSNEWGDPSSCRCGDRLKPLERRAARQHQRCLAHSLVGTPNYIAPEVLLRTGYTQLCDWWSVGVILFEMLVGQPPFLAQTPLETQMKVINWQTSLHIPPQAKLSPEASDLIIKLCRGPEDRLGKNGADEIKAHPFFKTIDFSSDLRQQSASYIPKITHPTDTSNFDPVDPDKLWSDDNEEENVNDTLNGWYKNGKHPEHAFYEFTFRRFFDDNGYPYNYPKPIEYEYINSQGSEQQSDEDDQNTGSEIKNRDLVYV
UniProt P53350, sequence (whole entry, looked up): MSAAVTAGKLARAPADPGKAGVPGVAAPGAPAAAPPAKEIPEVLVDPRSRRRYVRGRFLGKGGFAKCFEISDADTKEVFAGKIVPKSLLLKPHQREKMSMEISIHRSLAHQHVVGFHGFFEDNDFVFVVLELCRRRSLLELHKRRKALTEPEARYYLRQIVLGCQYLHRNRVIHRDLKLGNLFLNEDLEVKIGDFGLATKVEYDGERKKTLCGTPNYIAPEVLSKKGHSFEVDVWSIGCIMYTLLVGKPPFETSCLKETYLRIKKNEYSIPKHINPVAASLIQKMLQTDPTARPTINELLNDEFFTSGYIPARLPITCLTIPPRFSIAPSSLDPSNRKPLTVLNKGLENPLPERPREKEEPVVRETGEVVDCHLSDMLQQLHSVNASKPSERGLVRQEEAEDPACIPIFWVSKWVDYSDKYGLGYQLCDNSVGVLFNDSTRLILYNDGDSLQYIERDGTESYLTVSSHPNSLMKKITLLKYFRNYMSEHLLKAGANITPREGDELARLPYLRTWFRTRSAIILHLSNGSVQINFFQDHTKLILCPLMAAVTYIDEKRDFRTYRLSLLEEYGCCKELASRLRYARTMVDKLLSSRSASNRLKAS

Compound	target or system	assay	test system	setting	how to read	quantity	value
CN(C)[C@H]1C[C@@]23CC[C@@]4(O2)C(=CC[C@]2(C)[C@@H](c5ccc6ccncc6c5)CC[C@H]24)C=C3[C@@H](O)[C@@H]1O	LATS1 (Homo sapiens, UniProt O95835)	ATP probe labelling, inhibitor, KiNativ profiling		1 µM		inhibition	-6.5%
CO[C@@H]1[C@@H](OC(=O)c2ccc(C)[nH]2)[C@@H](O)[C@H](Oc2ccc3c(O)c(NC(=O)c4c[nH]c(C(=O)Nc5c(O)c6ccc(O[C@@H]7OC(C)(C)[C@H](OC)[C@@H](OC(=O)c8ccc(C)[nH]8)[C@H]7O)c(C)c6oc5=O)c4C)c(=O)oc3c2C)OC1(C)C	Replication protein E1, helicase domain (E1, Human papillomavirus type 16, UniProt P03114)	fork unwinding		500 µM		remaining activity	0%
O=C1NC2(CC2)COc2ncc(F)cc2[C@H]2COCCN2c2ccn3ncc1c3n2			Sprague-Dawley rat, female, uterus	oral, 5 mg/kg/day, 4 weeks, end of treatment		organ-to-body weight ratio	0.134 ± 0.026%
Cc1ccc(C)c(-c2ccc3nc(NC(=O)C4CCCCC4)nn3c2)c1	PLK1 (Homo sapiens, UniProt P53350)	enzyme activity		10 µM		remaining activity	62%
[CH3][Ti+2][O]C(=O)c1ccc([S][Au][PH](c2ccccc2)(c2ccccc2)c2ccccc2)cc1.c1cc[cH-]c1.c1cc[cH-]c1	RPS6KB1 (Homo sapiens, UniProt P23443)	kinase activity, HotSpot radiometric		1 µM, with: ATP 10 µM	baseline: vehicle	remaining activity	98.4% and 99%
O=C(Nc1ccncc1)c1ccccc1OS(=O)(=O)F	Uncharacterized hydrolase SAUSA300_2518	enzyme activity, inhibitor, fluorogenic substrate		0.1 µM		remaining activity	86.6% and 95.1% and 84.6%
CC(C)[C@H]1NC(=O)C[C@H]2/C=C/CCSSC[C@@H](NC1=O)C(=O)N[C@H](Cc1cccc3ccccc13)C(=O)NCC(=O)O2	INSRR (Homo sapiens, UniProt P14616)	enzyme activity, inhibitor		10 µM		inhibition	1.3%
O=C1NC(=O)c2c1c1cc(F)c[n+]3c1c1c2c2cc(O)ccc2[n]1[Ru-4]312([N]=C=S)[S+]3CC[S+]1CC[S+]2CC3 (stereo not shown)	Blk (Mus musculus, UniProt P16277)	enzyme activity		100 nM, mouse enzyme, with: 10 µM ATP	baseline: untreated	remaining activity	8%
Cc1ccc(N2CC3CCC(C2)N3C)cc1C(=O)N[C@H](C)c1cc(-c2cnn(C)c2)nc2ccccc12	USP14 (Homo sapiens, UniProt P54578)	enzyme activity		30 µM		remaining activity	96.4%
CN1CCCN(C(=O)c2ccc(S(=O)(=O)F)cc2)c2ccccc21	Uncharacterized hydrolase SAUSA300_2518	enzyme activity, inhibitor, fluorogenic substrate		0.01 µM		remaining activity	117% and 114%
O=C(O)c1ccc(-c2nc(-c3ccccc3Cl)c3sccn23)cc1	BLVRB (Homo sapiens, UniProt P30043)			concentration not given		remaining activity	32%
Cc1ccc(OS(=O)(=O)F)c(C(=O)Nc2ccncc2)c1	Uncharacterized hydrolase SAUSA300_2518	enzyme activity, inhibitor, fluorogenic substrate		0.1 µM		remaining activity	90.1% and 86.3% and 83.3%
CC(C)(C)C(=O)OCOP(=O)(OCOC(=O)C(C)(C)C)C1CCCN(O)C1=O (stereo not shown)	OVCAR-3					GI50	559 nM
